Measurements of several laboratories.
“And” joins repeats or separate records; there may be more than shown. ± marks the error that the study gave.
Gria2: Glutamate receptor 2 (Gria2, Rattus norvegicus, UniProt P19491)
CASP7: Caspase-7 (CASP7, Homo sapiens, UniProt P55210)

SMILES = Cc1c(C(=O)N[C@H](C(=O)Nc2cccc(C(N)=O)c2)c2ccc(OCc3ccccc3)cc2)cnn1-c1ccccc1; target = Genome polyprotein, NS2B-NS3 protease (dengue virus type 2, UniProt P29990); test = enzyme activity, fluorogenic AMC substrate; setting = 50 µM; endpoint = inhibition; value = 91%
SMILES = Cn1c(=O)n(C2CCC(=O)NC2=O)c2ccc(C3CCN(CC(=O)Nc4cccc(CS(=O)(=O)N5CC[C@H](Nc6cccc(-c7sc(C(=O)O)c(OCC(=O)O)c7Cl)c6)CC5(C)C)c4)CC3)cc21 (stereo partly drawn); target = Tyrosine-protein phosphatase non-receptor type 1 (Mus musculus, UniProt P35821); test = degrader, Western blot; system = B16-F10; setting = 0.01 µM; endpoint = remaining protein; value = 64.4% and 56.2%
SMILES = O=C(O)Cc1cc2c(cc1C(=O)c1cccc(I)c1)OCO2; target = Gria2; test = glutamate-evoked current, whole-cell patch clamp; system = HEK-293T; setting = concentration not given; endpoint = current amplitude; value = 345 ± 29 pA
SMILES = CC(C)Oc1cc(Cl)ccc1CNc1cc(-c2ccccc2)nc2ncnn12; target = GPR3 (Homo sapiens, UniProt P46089, R152A); test = cAMP level, cAMP GloSensor; setting = 30 µM; scale = higher = more cAMP; endpoint = cAMP luminescence; value = 18100 a.u. and 21800 a.u. and 16700 a.u. and 14700 a.u.
SMILES = O=C(O)Cc1cc2c(cc1C(=O)c1ccccc1)OCO2; target = Gria2; test = glutamate-evoked current, whole-cell patch clamp; system = HEK-293T; setting = concentration not given, weighted tau, 500 ms pulse, with: glutamate; endpoint = desensitization time constant; value = 2.5 ± 0.1 ms
SMILES = CC1=NN(c2ccc(C)c(C)c2)C(=O)/C1=N\Nc1cccc(-c2cccc(C(=O)NCCOCCOCCNC(=O)CCCC[C@@H]3SC[C@@H]4NC(=O)N[C@@H]43)c2)c1O; target = Transcription factor EB, bHLH-LZ domain (TFEB, Homo sapiens, UniProt P19484); test = binding, SPR; setting = compound immobilised on SA chip; endpoint = koff; value = 0.0108 ± 0.00012 s⁻¹
SMILES = Cc1ccc(C)c(-c2cc(NC(=O)c3cncc(Br)c3)[nH]n2)c1; target = human kinase panel; test = binding, KINOMEscan; setting = 10000 nM, %Ctrl below 35; endpoint = number of kinases hit; value = 1
SMILES = CC(=O)N[C@@H](CC(=O)O)C(=O)N[C@@H](Cc1ccc(I)cc1)C(=O)N[C@@H](C)C(=O)N[C@@H](CC(=O)O)C(=O)COC(=O)c1c(C)cccc1C; target = CASP7; test = enzyme activity, inhibitor; endpoint = kinact/KI; value = 190000 M⁻¹ s⁻¹
SMILES = CCCCCC(O)/C=C/C=O (stereo not drawn); target = 5'-nucleotidase domain-containing protein 1 (NT5DC1, Homo sapiens, UniProt Q5TFE4); test = competitive isoTOP-ABPP, item: NT5DC1 cysteine peptide; system = Ramos soluble proteome; setting = 100 µM, with: iodoacetamide probe; scale = baseline: DMSO over compound-treated, higher = stronger cysteine blockade; endpoint = isoTOP-ABPP competition ratio; value = 4.5
SMILES = NCc1cc2c(cc1F)C(=O)N(C1CCC(=O)NC1=O)C2 (stereo not drawn); target = NEK7/CRBN (Homo sapiens, UniProt Q8TDX7+Q96SW2); test = degrader, Western blot; system = Hep3B; setting = 6 h; endpoint = Dmax; value = 69%
SMILES = N#CN1CC[C@H](C(=O)Nc2nc3c(s2)CN(C(=O)Cn2cc(COCCOCCOCCOCCNC(=O)CCCC[C@@H]4SC[C@@H]5NC(=O)N[C@@H]54)nn2)CC3)C1; target = TUBB (Homo sapiens, UniProt P07437); test = probe binding, affinity probe, neutravidin pull-down LC-MS/MS; system = HEK293T, cell lysate; setting = 5 µM, 1 h, mean of three replicates, unit not given; scale = higher = more pulled down; endpoint = iBAQ abundance; value = 1.16e+08
SMILES = CC(=O)N1[C@H](C(=O)N[C@H](C(=O)N[C@@H](Cc2c[nH]cn2)C(=O)N[C@@H](CC(=O)O)C(=O)COC(=O)c2c(C)cccc2C)C(C)(C)C)C[C@@H]2CCCC[C@@H]21; target = CASP7; test = enzyme activity, inhibitor; endpoint = kinact/KI; value = 700 M⁻¹ s⁻¹
SMILES = COc1ccccc1-c1ccncc1C(=O)Nc1nnc(OCc2ccc(Cl)cc2)s1; target = DNA polymerase theta, helicase domain (POLQ, Homo sapiens, UniProt O75417); test = ATPase activity, ADP-Glo; setting = 0.008 µM, with: ATP 600 µM; endpoint = remaining activity; value = 75%
SMILES = COC(=O)[C@@]1(C)C=C(C(=O)Nc2cccc(C(=O)Nc3ccc(Nc4nccc(-c5cccnc5)n4)c(C)c3)c2)C(=O)CC1; target = MAPK1 (Homo sapiens, UniProt P28482); test = kinase activity, inhibitor; setting = 44.44 µM, unit not given; scale = baseline: no inhibitor; endpoint = remaining activity; value = 0.625
SMILES = CCOC(=O)C(CC)(CCCSCCOCCOCCN=[N+]=[N-])NC(=O)c1ccc(C2CC2)c(Cc2ccc(F)cc2)n1 (stereo not drawn); target = CNR2 (Homo sapiens, UniProt P34972); test = radioligand binding; scale = baseline: CB1 over CB2 (human); endpoint = Ki ratio; value = 8

Repeated from above:
SMILES = Cc1ccc(C)c(-c2cc(NC(=O)c3cncc(Br)c3)[nH]n2)c1; target = human kinase panel; test = binding, KINOMEscan; setting = 10000 nM, %Ctrl below 35; endpoint = number of kinases hit; value = 1
